Earlier results that unrelated publications cite.
Numbered parts are unrelated; values within a part may stem from several laboratories. Numbers after ± are the reported error.

Sample 1 — organism: SARS-CoV-2; observed: viral cytopathic effect; cells: Vero E6; tested at: 20 µM
SMILES	inhibition [%]
O=c1c(O)c(-c2cc(O)c(O)c(O)c2)oc2cc(O)cc(O)c12	-0.28
O=c1c(O)c(-c2ccc(O)cc2O)oc2cc(O)cc(O)c12	-0.19
COc1cc(NC(C)CCCN)c2ncccc2c1 (stereo not drawn)	-0.14

Sample 2 — organism: SARS-CoV-2; observed: cytopathic effect; cells: Caco-2; tested at: 10 µM
SMILES	inhibition
Cc1cc(-c2ccc(/N=N/c3ccc4c(S(=O)(=O)O)cc(S(=O)(=O)O)c(N)c4c3O)c(C)c2)ccc1/N=N/c1ccc2c(S(=O)(=O)O)cc(S(=O)(=O)O)c(N)c2c1O	34.8%
C=C1c2cccc(O)c2C(=O)C2=C(O)[C@]3(O)C(=O)C(C(N)=O)=C(O)[C@@H](N(C)C)[C@@H]3[C@@H](O)[C@H]12	9.1%
CC(=O)[O][Pt]([NH2])([Cl])([Cl])([NH]C1CCCCC1)[O]C(C)=O	13.3%
CN1CCN2c3ccccc3Cc3ccccc3C2C1 (stereo not drawn)	-1.4%
CC1=CC(=O)c2ccccc2C1=O	4.3%
C/N=c1/nc(-c2ccccc2)n(-c2ccccc2)s1	0.5%
O=C(O)c1cc(N2N=C(C(F)(F)F)/C(=C/c3ccc(-c4ccccc4)o3)C2=O)ccc1Cl	1.8%
CN(CCCN1c2ccccc2CCc2ccccc21)CC(=O)c1ccc(Cl)cc1	40.9%
C=CC1=C(C)c2cc3[nH]c(cc4nc(cc5[nH]c(cc1n2)c(C)c5C=C)C(C)=C4CCC(=O)O)c(CCC(=O)O)c3C.[Fe+3]	62.9%
Cc1c(OCC(F)(F)F)ccnc1C[S+]([O-])c1nc2ccccc2[nH]1 (stereo not drawn)	19.3%
FC(F)(F)c1cc(NC(=S)Nc2ccc(Br)cc2-c2nnn[nH]2)cc(C(F)(F)F)c1	19.3%
COc1ccnc(C[S+]([O-])c2nc3ccc(OC(F)F)cc3[nH]2)c1OC (stereo not drawn)	2.8%
[O-][S+](c1ccccc1)c1ccc2nnnn2n1 (stereo not drawn)	-2.4%
O=C(O[C@@H]1Cc2c(O)cc(O)cc2O[C@@H]1c1cc(O)c(O)c(O)c1)c1cc(O)c(O)c(O)c1	6.3%
COc1cc(C(=S)N2CCOCC2)ccc1O	0.9%
CC1(C)C(/C=C/C=C/C=C/C=C2\N(CCCCS(=O)(=O)[O-])c3ccc4ccccc4c3C2(C)C)=[N+](CCCCS(=O)(=O)[O-])c2ccc3ccccc3c21.[Na+]	2.4%
O=C(O)CCCCCCCCCCCCCCc1ccc(I)cc1	3.3%
Nc1nnc(Sc2ncc([N+](=O)[O-])s2)s1	3.5%
CCc1ccc(/C=C/C(=O)Nc2ccc(C(C)=O)cc2)o1	42.4%
CCC(C)SSc1ncc[nH]1 (stereo not drawn)	6.9%
Cc1ccc(S(=O)(=O)/C=C/C#N)cc1	0.234%
Oc1cc(CNC(=S)/C=C/c2cc(O)c(O)c(Br)c2)cc(O)c1O	5.1%
C[n+]1c2cc(N)ccc2cc2ccc(N)cc21	99.5%
Cc1ccccc1N(C)C(=O)c1ccc([S+]([O-])c2nccs2)c([N+](=O)[O-])c1 (stereo not drawn)	4%
CC(=O)O/N=C1\C(=O)N(Cc2cc(Cl)ccc2Cl)c2ccc(Cl)cc21	-1.2%

Further values, each from its own experiment
gag-pol C1203S/F1286D/F1332H integrase catalytic core domain: Gag-Pol polyprotein, integrase catalytic core domain (gag-pol, Human immunodeficiency virus 1, UniProt P12497, C1203S/F1286D/F1332H)
Compound	tested on	assay	test system	conditions	measurement	result
CC[C@H](C)NC(=O)c1ccccc1CN(C)Cc1ccc2c(c1C(=O)O)OCO2	gag-pol C1203S/F1286D/F1332H integrase catalytic core domain	binding, SPR			Kd	> 2000 µM
COCCn1c2c([n+](Cc3cnccn3)c1C)C(=O)c1ccccc1C2=O	SARS-CoV-2	antiviral activity			EC50	0.17 µM
COc1ccc(CNC(=O)C2CCN([C@H](C)c3cccc4ccccc34)CC2)cc1	SARS-CoV-1	viral replication	Vero E6		ID50	10 µM
CC(C)C(=O)OCC(=O)[C@@]12O[C@H](C3CCCCC3)O[C@@H]1C[C@H]1[C@@H]3CCC4=CC(=O)C=C[C@]4(C)[C@H]3[C@@H](O)C[C@@]12C	SARS-CoV-2	viral replication, N protein immunofluorescence			IC50	4.33 µM
C[C@H](c1cccc2ccccc12)N1CCC(C(=O)NCc2cc(F)cc(NC(=O)N3CCN(C)CC3)c2)CC1	SARS-CoV-2	viral replication			IC50	0.18 µM
CC(C)C(=O)OC[C@H]1O[C@@H](n2ccc(NO)nc2=O)[C@H](O)[C@@H]1O		hospitalization or death	sample A patients	dose not given, clinical trial	risk reduction	30%
CC(C)C(=O)OC[C@H]1O[C@@H](n2ccc(NO)nc2=O)[C@H](O)[C@@H]1O	SARS-CoV-2		sample A patients	dose not given	hospitalization and death reduction	50%
C=CCN(Cc1ccccc1C(=O)NCc1ccccc1)Cc1ccc2c(c1C(=O)O)OCO2	gag-pol C1203S/F1286D/F1332H integrase catalytic core domain	binding, SPR			Kd	1760 µM
CNP(=O)(OC)Oc1ccc(C(C)(C)C)cc1Cl (stereo not drawn)				pH 7.4	logD	3.24
COc1cc2c(cc1NC(=O)c1ccc(C(C)(C)C)cc1)CCCC2	chikungunya virus	viral replication			EC90	0.27 µM
C=C1CC[C@@H]2[C@](C)(CO)[C@H](O)CC[C@@]2(C)[C@@H]1C/C=C1/C(=O)OC[C@H]1O	SARS-CoV-2	viral replication	Calu-3		IC50	1.68 µM
COc1ccccc1NC(=O)c1ccccc1[Se][Se]c1ccccc1C(=O)Nc1ccccc1OC	SARS-CoV-2 papain-like protease	enzyme activity		with: 2 mM DTT	IC50	0.263 ± 0.121 µM
COc1cc2c(cc1NC(=O)c1ccc(C(C)(C)C)cc1)CCCC2	Venezuelan equine encephalitis virus	viral replication			EC50	13.2 µM
CN1CCN(c2ccc(Nc3ncc4cc5n(c4n3)C3(CCCCC3)CNC5=O)nc2)CC1	MATE1	transport, inhibitor			IC50	0.175 µM
Cc1cccc(C)c1OCC(=O)N[C@@H](Cc1ccccc1)[C@@H](O)C[C@H](Cc1ccccc1)NC(=O)[C@H](C(C)C)N1CCCNC1=O	SARS-CoV-2	cytopathic effect	USA_WA1/2020		IC50	12.6 µM
COc1ccccc1-n1[se]c2ccccc2c1=O	SARS-CoV-2 papain-like protease	enzyme activity		with: 2 mM DTT	IC50	0.256 ± 0.035 µM
CC[C@H]1OC(=O)[C@H](C)[C@@H](O[C@H]2C[C@@](C)(OC)[C@@H](O)[C@H](C)O2)[C@H](C)[C@@H](O[C@@H]2O[C@H](C)C[C@H](N(C)C)[C@H]2O)[C@](C)(O)C[C@@H](C)CN(C)[C@H](C)[C@@H](O)[C@]1(C)O	SARS-CoV-2	cytopathic effect	USA_WA1/2020		IC50	48 µM
O=c1[nH]c2ccccc2n1C1CCN(CCCC(c2ccc(F)cc2)c2ccc(F)cc2)CC1	HEK293T-ACE2-TMPRSS2	pseudovirus entry	SARS-CoV-2 pseudovirus		IC50	4.5 µM
O=c1c(O)c(-c2ccc(O)c(O)c2)oc2cc(O)cc(O)c12	pseudorabies virus	viral replication			IC50	0.79 µg/mL
C=C(C)[C@@H]1CCC(C)=C[C@H]1c1c(O)cc(CCCCC)c(C(=O)O)c1O	SARS-CoV-2	viral replication		literature value	EC50	21.5 µM
C[C@H](c1cccc2ccccc12)N(C)Cc1cccc2[nH]ccc12	SARS-CoV-2 PLpro	enzyme activity, inhibitor			IC50	0.62 µM
CCCCCc1cc(O)c(C/C=C(\C)CCC=C(C)C)c(O)c1C(=O)O	SARS-CoV-2	viral replication		literature value	EC50	23.3 µM
COc1ccc2c(O[C@@H]3C[C@H]4C(=O)N[C@]5(C(=O)NS(=O)(=O)C6CC6)C[C@H]5/C=C\CCCCN(C)C(=O)[C@@H]4C3)cc(-c3nc(C(C)C)cs3)nc2c1C	SARS-CoV-2	viral replication	293T-ACE2		EC50	2.3 µM
